# Results collected from several papers.
# A part holds a random share of what one study measured.

# Set 1
# Target: RING finger protein unkempt homolog, zinc fingers 1-6, GST-SBP tag (UNK, Homo sapiens, UniProt Q9C0B0, residues 30-357)
# Technique: RNA Bind-n-Seq
# Form: RNA
# Sample: in vitro
# Tested at: not given
# Setting: RNA with constant flanks, human and mouse sites, ends assumed
# Baseline: input RNA pool
# Reading: higher = stronger binding
# All sequences stand within: GGGAGUUCUACAGUCCGACGAUC … CAACAGAGGAUUGAGCAUCA
# Construct (chain): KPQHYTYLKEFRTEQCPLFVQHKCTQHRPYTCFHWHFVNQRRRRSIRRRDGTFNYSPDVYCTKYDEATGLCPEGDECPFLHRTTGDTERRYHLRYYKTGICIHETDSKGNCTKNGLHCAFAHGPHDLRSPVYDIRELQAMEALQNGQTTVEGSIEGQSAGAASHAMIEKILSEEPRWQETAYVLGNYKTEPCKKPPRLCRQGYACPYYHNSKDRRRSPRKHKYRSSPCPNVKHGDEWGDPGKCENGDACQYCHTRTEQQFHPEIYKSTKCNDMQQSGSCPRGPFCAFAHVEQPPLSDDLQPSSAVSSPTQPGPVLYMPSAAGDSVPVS
Sequence,bound/input enrichment
CCACUAUCAGAAACAGAAAUGGCUCUGGGCAAGGAUGUGACUCCACCUCCAGAAACAGAAGUAGUUCUCAUCAAGAACGUAUGUCUGCCUCCAGAAAUGGAGGUGGCCCUGACUGAGGAU,0.0856 ratio
UCAGGAUACUGUAGUUUCCUCUAUCUAAUAGAGAACUUUUUGUUAACAGACACUGUAAAAUAGUUUUGCUUUGUUGAAUAAUACGUGUGUACCUAAAAGAGGUAAGAGCAAAAAGUGUAA,0.51 ratio
AUUGACGAGAUAGCAAGCAACCUUCAGAGCAAAAUUAACCAAACCAAACAGCAGGAAGAUGCAGUGAUCAAUGUUGAGGAUGAUGAAGAGGAAGAGGAAGACAACGAAGUCGAGAUAGAG,0.527 ratio
GCAACUUGGAAAGACUAUCUUUCAAGCUUCAAUUCUUACCUGACUAAGUCUGCUGAUUUUAUAGAACAAUCUGUUUUUUACUGGGAACAGAUGACAGAUGGGUUUUUCAUUUUUGGUGAA,0.247 ratio
AGUUGUGUAGCCCACAAUGCCCUGGAGUGUGCACGAGCCAUCUACGCCUACGCCCUGCAGGUGUUCCCCAGCAAGAAGAGUGUGUGGCUGCGCGCCGCGUACUUCGAGAAGAACCAUGGC,0.0985 ratio
GAAGAGAAUUAUGGUGUGGUGUCCACAUAUGAUAGCAGUUUAUCUUCAUAUACGGUUCCUUUAGAAAGGGACAACUCAGAAGAAUUUCUUAAACGGGAGGCAAGGGCAAACCAGUUAGCA,1.41 ratio

# Set 2
# Target: Fragile X messenger ribonucleoprotein 1, C-terminal low-complexity region (Fmr1, Mus musculus, UniProt P35922)
# Technique: RNA Bind-n-Seq
# Form: RNA
# Sample: in vitro
# Tested at: 200 nM
# Setting: whole 134-nt RNA, ends assumed
# Together with: 150 mM KCl
# Baseline: input library
# Reading: higher = stronger binding
# All sequences stand within: GGGAGUUCUACAGUCCGACGAUC … UGGAAUUCUCGGGUGUCAAGG
Sequence,log2 enrichment
CAAGUCCUGUGCUACACAUCGUAUGUACCGAAUCGGUUUUGGGUUUUGGUUUUGGGAAAGUAUUAUGUUACGCCGUUCGGAUCUGCACUU,-0.696
GUCCUGUGCUACACAUCGUAUGUACCGAAUCGGGCCCCCGGGGCCCCCGGGGCCCCCGGAAAGUAUUAUGUUACGCCGUUCGGAUCUGCA,0.444
UUCUGACUCAGAAUGUGCCAAAAAGGCUUUGGAACAACUUAAUGGAUUUGAACUAGCAGGAAGACCAAUGAAAGUUGGUCAUGUUACUGA,-1.57
UAACUUUAGAGGAGGAUCUGAUGGAUAUGGCAGUGGACGUGGAUUUGGGGAUGGCUAUAAUCGGUAUGGAGGAGGACCUGGAGGUGGCAA,0.172
UAACUCUAGAGGAGGAUCUGAUGGAUAUGGCAGUGGACGUGGAUUUGGGGAUGGCUAUAAUGGGUAUGGAGGAGGACCUGGAGGUGGCAA,0.274
CCUGUGCUACACAUCGUAUGUACCGAAUCAAACCCCCCCAAACCCCCAAACCCCCCCAAAAAAGUAUUAUGUUACGCCGUUCGGAUCUGC,0.688
AGUCCUGUGCUACACAUCGUAUGUACCGAAUCGGGGAGGGGAAAAAAAGGGGUGGGGAAAGUAUUAUGUUACGCCGUUCGGAUCUGCACU,0.878
CAAGUCCUGUGCUACACAUCGUAUGUACCGAAUCGGUUUUUGGAAAAAGGAAAGGAAAGUAUUAUGUUACGCCGUUCGGAUCUGCACUUC,-0.713
GGCACCCUUUGAAGGGGAGGAUGAAGAUGAACUCUUCCAAUCCAUCAUGGAACACAACGUAGCCUAUCCCAAGUCUAUGUCCAAGGAAGC,-0.0813

# Set 3
# Target: Prothrombin, mature alpha-thrombin (F2, Homo sapiens, UniProt P00734)
# Technique: aptamer microarray, sandwich
# Form: DNA with 2'F-ANA
# Sample: in vitro
# Tested at: 200 nM
# Setting: whole 15-mer aptamer, many near background
# Together with: Cy3 exosite-II aptamer, 400 nM
# Reading: higher = stronger binding
# Sequence: GGTTGGTGTGGTTGG
Modification,mean fluorescence intensity [a.u.]
2'F-ANA at 3 7 8 13 15,1060
2'F-ANA at 2 4 5 6 7 9 10 12 14,47.9
2'F-ANA at 1 2 4 5 6 7 8 9 10 13 14,70.8
2'F-ANA at 1 2 6 7 8 12 13 14,69.3
2'F-ANA at 1 2 3 4 6 8 9 10 11 13,54.1
2'F-ANA at 1 2 3 4 10 12 14,50
2'F-ANA at 1 5 10 11 13 14 15,45.9

# Mixed results
Substance,target,test,test system,conditions,scale,endpoint,value
"PhoQ, residues 284 288 289 292 302 303 SQSLSM","PhoP, residues 12 14 15 18 19 SFCSL (Escherichia coli, UniProt P23836)","Sort-seq, item: YFP reporter",E. coli,"PhoQ-PhoP variant library, together with: 10 µM Mg2+","baseline: high Mg2+ state, higher = stronger signaling",fold induction,15.5

# Some of these lines once more (set 1):
Sequence,bound/input enrichment
AGUUGUGUAGCCCACAAUGCCCUGGAGUGUGCACGAGCCAUCUACGCCUACGCCCUGCAGGUGUUCCCCAGCAAGAAGAGUGUGUGGCUGCGCGCCGCGUACUUCGAGAAGAACCAUGGC,0.0985 ratio
GAAGAGAAUUAUGGUGUGGUGUCCACAUAUGAUAGCAGUUUAUCUUCAUAUACGGUUCCUUUAGAAAGGGACAACUCAGAAGAAUUUCUUAAACGGGAGGCAAGGGCAAACCAGUUAGCA,1.41 ratio
GCAACUUGGAAAGACUAUCUUUCAAGCUUCAAUUCUUACCUGACUAAGUCUGCUGAUUUUAUAGAACAAUCUGUUUUUUACUGGGAACAGAUGACAGAUGGGUUUUUCAUUUUUGGUGAA,0.247 ratio
CCACUAUCAGAAACAGAAAUGGCUCUGGGCAAGGAUGUGACUCCACCUCCAGAAACAGAAGUAGUUCUCAUCAAGAACGUAUGUCUGCCUCCAGAAAUGGAGGUGGCCCUGACUGAGGAU,0.0856 ratio
